Published values of several laboratories.
Several values in a cell are separate wells, animals, samples, runs or records. ± marks the error that the study gave.

SMILES = COc1cc2c(cc1OC)CN(CCc1ccc(NC(=O)c3cc(OC)c(OC)cc3NC(=O)c3cnc4ccccc4c3)cc1)CC2; test system = human, plasma; setting = intravenous infusion, 4 mg/kg, up to 24 h post-infusion; AUC(0-t) = 17300 ng·h/mL and 13500 ng·h/mL and 11400 ng·h/mL and 12700 ng·h/mL
SMILES = NC(=O)c1cnc2[nH]ccc2c1N[C@@H]1[C@@H]2CC3C[C@H]1C[C@@](O)(C3)C2; test system = healthy Japanese men, plasma; setting = oral, 200 mg, single dose fasted; AUC(0-t) = 2510 ng·h/mL
SMILES = C[C@H]1Oc2cc(cnc2N)-c2c(nn(C)c2C#N)CN(C)C(=O)c2ccc(F)cc21; test system = healthy adults; setting = oral tablet, 100 mg single dose, adjusted geometric mean, with: rabeprazole 20 mg; AUC(0-t) = 7950 ng·h/mL
SMILES = CC(C)=CCC[C@](C)(O[C@@H]1O[C@H](CO)[C@@H](O)[C@H](O)[C@H]1O)[C@H]1CC[C@]2(C)[C@@H]1[C@H](O)C[C@@H]1[C@@]3(C)CC[C@H](O[C@@H]4O[C@H](CO)[C@@H](O)[C@H](O)[C@H]4O)C(C)(C)[C@@H]3CC[C@]12C; test = LC-MS/MS; test system = healthy volunteers, serum; setting = oral, 3 g fermented red ginseng; AUC(0-t) = 27.2 ± 37.2 ng·h/mL
SMILES = Cc1ccc(NC(=O)c2ccc(CN3CCN(C)CC3)cc2)cc1Nc1nccc(-c2cncc(-c3oncc3C)c2)n1; test system = healthy volunteers, plasma; setting = oral, 25.0 mg once daily, day 1, 7-day dosing, mean; AUC(0-t) = 12600 ng·h/mL
SMILES = Cc1nc(-c2ccc(OCC(C)C)c(C#N)c2)sc1C(=O)O; test system = healthy Chinese adult volunteers, plasma; setting = oral, 20 mg single dose, fed; AUC(0-t) = 2930 ± 752 ng·h/mL
SMILES = CNC(=O)c1ccc(-c2cnc3ncc(Cc4ccc5ncccc5c4)n3n2)cc1F; test system = normal hepatic function; setting = oral, 200 mg, mean; AUC(0-t) = 6930 ng·h/mL
SMILES = CC(C)=CCC[C@](C)(O[C@@H]1O[C@H](CO)[C@@H](O)[C@H](O)[C@H]1O)[C@H]1CC[C@]2(C)[C@@H]1[C@H](O)C[C@@H]1[C@@]3(C)CC[C@H](O[C@@H]4O[C@H](CO)[C@@H](O)[C@H](O)[C@H]4O[C@@H]4O[C@H](CO)[C@@H](O)[C@H](O)[C@H]4O)C(C)(C)[C@@H]3CC[C@]12C; test = LC-MS/MS; test system = healthy male volunteers, serum; setting = oral, 3 g red ginseng; AUC(0-t) = 6.93 ± 11.4 ng·h/mL

Some of these lines once more:
SMILES = Cc1ccc(NC(=O)c2ccc(CN3CCN(C)CC3)cc2)cc1Nc1nccc(-c2cncc(-c3oncc3C)c2)n1; test system = healthy volunteers, plasma; setting = oral, 25.0 mg once daily, day 1, 7-day dosing, mean; AUC(0-t) = 12600 ng·h/mL
